Published values from different studies.
Each line is one published result; not all experiments were run side by side. Numbers after ± are the reported error.

The MIC of `CC[C@H](C)[C@H](NC(=O)[C@H](C)NC(=O)CNC(=O)[C@@H](N)CCSC)C(=O)N[C@@H](C)C(=O)N[C@@H](CCCCN)C(=O)N[C@@H](CC(C)C)C(=O)N[C@H](C(=O)N[C@@H](C)C(=O)N[C@@H](CCCCN)C(=O)N[C@@H](Cc1ccccc1)C(=O)NCC(=O)N[C@@H](Cc1c[nH]c2ccccc12)C(=O)N1CCC[C@H]1C(=O)N[C@@H](CCCNC(=N)N)C(=O)N[C@H](C(=O)N[C@@H](CCCCN)C(=O)N[C@@H](CCCCN)C(=O)N[C@@H](Cc1ccccc1)C(=O)N[C@@H](Cc1ccc(O)cc1)C(=O)N[C@@H](CCCCN)C(=O)N[C@@H](CCC(N)=O)C(=O)N[C@H](C(=O)N[C@@H](CCSC)C(=O)N[C@@H](CCC(N)=O)C(=O)N[C@@H](Cc1ccccc1)C(=O)N[C@H](C(=O)NCC(=O)N[C@@H](CCC(N)=O)C(=O)NCC(=O)N[C@@H](Cc1c[nH]c2ccccc12)C(=O)N[C@H](C(=O)N[C@H](C(=O)N[C@@H](CC(=O)O)C(=O)N[C@@H](CCC(N)=O)C(=O)N[C@H](C(=O)N[C@@H](CCC(=O)O)C(=O)N[C@@H](CCCCN)C(=O)N[C@@H](Cc1c[nH]c2ccccc12)C(=O)N[C@@H](CC(C)C)C(=O)N[C@@H](CCCCN)C(=O)N[C@@H](CCCNC(=N)N)C(=O)N[C@@H](Cc1c[nH]cn1)C(=O)O)[C@@H](C)CC)[C@@H](C)CC)[C@@H](C)O)[C@@H](C)CC)[C@@H](C)CC)[C@@H](C)CC)C(C)C` is reported as 10.9 ± 0.1 µM (Bacillus subtilis subsp. subtilis; ATCC 23857; 10 h).
`COc1ccc(C2=[N+]([O-])c3ccccc3N3CCCN=C23)cc1` gave an MIC of 1 µg/mL (Prevotella intermedia/nigrescens; ATCC 25611).
For `CC[C@H](C)[C@H](NC(=O)[C@H](CCCCNC(=N)N)NC(=O)[C@H](CC(N)=O)NC(=O)[C@H](CC(C)C)NC(=O)[C@H](Cc1ccccc1)NC(=O)[C@H](CCCCNC(=N)N)NC(=O)[C@H](CCCCNC(=N)N)NC(=O)[C@H](CC(C)C)NC(=O)[C@H](CC(C)C)NC(=O)[C@H](CCCCNC(=N)N)NC(=O)[C@H](CCCCNC(=N)N)NC(=O)[C@H](CC(C)C)NC(=O)CNC(C)=O)C(=O)N[C@@H](CCCCNC(=N)N)C(=O)N[C@@H](CCCCNC(=N)N)C(N)=O`, the MIC was 12.5 µM (Enterobacter aerogenes; broth microdilution; multidrug-resistant).
With `CC[C@H](C)[C@H](NC(=O)[C@@H](N)C(C)C)C(=O)N[C@@H](Cc1c[nH]cn1)C(=O)N[C@@H](CCCNC(=N)N)C(=O)N[C@@H](C)C(=O)NCC(=O)N[C@@H](CC(C)C)C(=O)N[C@@H](CCC(N)=O)C(=O)N[C@@H](Cc1ccccc1)C(=O)N1CCC[C@H]1C(=O)N[C@H](C(=O)NCC(=O)N[C@@H](CCCNC(=N)N)C(=O)N[C@H](C(=O)N[C@@H](Cc1c[nH]cn1)C(=O)N[C@@H](CCCNC(=N)N)C(=O)N[C@@H](CC(C)C)C(=O)N[C@@H](CC(C)C)C(=O)N[C@@H](CCCNC(=N)N)C(=O)N[C@@H](CCCCN)C(N)=O)C(C)C)C(C)C` the MIC was > 32 µM (Enterobacter aerogenes; ATCC 13048; 18 to 20 h).
For `COc1ccc(C2=[N+]([O-])c3ccccc3N3CCN=C23)cc1`, the MIC was ≤ 0.06 µg/mL (Prevotella intermedia/nigrescens; ATCC 25611).
`CN[C@@H]1[C@H](O)[C@H](NC)[C@H]2O[C@]3(O)[C@H](O[C@@H]2[C@H]1O)O[C@H](C)C[C@@]3(O)CNCc1ccc(Cl)cc1` has an MIC of 1.6 µg/mL (Streptococcus pneumoniae; R6).
For `C[C@@H](c1ccn(Cc2ccc(OC(F)(F)F)cc2)n1)[C@](O)(Cn1cnnn1)c1ccc(F)cc1F`, the MIC was 2 µg/mL (Candidozyma auris; microbial growth; 887; 24 h, drug-resistant strain, clinical isolate).
`CN[C@@H]1[C@H](O)[C@H](NC)[C@H]2O[C@]3(O)[C@H](O[C@@H]2[C@H]1O)O[C@H](C)C[C@@]3(O)CNCc1ccc(F)cc1` has an MIC of 6 µg/mL (Streptococcus pneumoniae; ATCC 700904 drug resistant).
`C=C(NC(=O)C(=C)NC(=O)c1csc(C2=NC3c4csc(n4)C4NC(=O)c5csc(n5)C(C(C)(O)C(C)O)NC(=O)C5CSC(=N5)C(=CC)NC(=O)C(C(C)O)NC(=O)c5csc(n5)C3(CC2)NC(=O)C(C)NC(=O)C(=C)NC(=O)C(CCSC)NC(=O)C(C(C)CC)NC2C=Cc3c(C(C)O)cc(nc3C2O)C(=O)OC4C)n1)C(N)=O` (stereo not drawn) gave an MIC of 0.086 µg/mL (Bacillus sp.; broth microdilution; ATCC 27859; 18 h, 37 °C).
`Cc1c2oc3c(C)ccc(C(=O)N[C@@H]4C(=O)N[C@H](C(C)C)C(=O)N5[C@H](C(=O)N(C)CC(=O)N(C)[C@@H](C(C)C)C(=O)O[C@@H]4C)[C@@H](O)C[C@@H]5C)c3nc-2c(C(=O)N[C@@H]2C(=O)N[C@H](C(C)C)C(=O)N3CC(=O)C[C@H]3C(=O)N(C)CC(=O)N(C)[C@@H](C)C(=O)O[C@@H]2CO)c(N)c1=O` gave an MIC of > 9.33 µg/mL (Saccharomyces cerevisiae; broth microdilution; ATCC 204508; 16 to 48 h).
For `Cc1ccc(C2OC(c3ccc(C)cc3)C(C)C(=NOCc3cn(-c4ccccc4)nn3)C2C)cc1` (stereo not drawn), the MIC was 25 µg/mL (Rhizopus; 72 to 96 h).
The MIC of `CC(C)C[C@@H]1NC(=O)[C@H](C)NC(=O)[C@@H]2NC(=O)[C@H](CO)NC(=O)[C@@H](CCCCN)NC(=O)[C@H](NC(=O)[C@@H](N)Cc3ccccc3)CCCCCCCC[C@H](NC1=O)C(=O)O[C@H]2C` is reported as 8 µg/mL (Bacillus subtilis Staphylococcus epidermidis; ATCC 14990; tested as TFA salt).
With `O=[N+]([O-])c1ccc(C2=[N+]([O-])c3ccccc3N3CCCN=C23)cc1` the MIC was ≤ 0.06 µg/mL (Prevotella intermedia/nigrescens; ATCC 25611).
`C[C@@H](c1ccn(Cc2ccc(Cl)c(Cl)c2)n1)[C@](O)(Cn1cnnn1)c1ccc(F)cc1F` gave an MIC of 8 µg/mL (Candidozyma auris; growth; 791 drug-resistant isolate; 24 h, 30 °C, ≥50% inhibition).
`[O-][N+]1=C(c2ccsc2)C2=NCCCN2c2ccccc21` has an MIC of 1 µg/mL (Clostridium sporogenes; microbial growth; ATCC3584).
`CC(C)[C@@H]1NC(=O)[C@@H](C(C)C)NC(=O)[C@@H](NC(=O)CCCCCCCCCCCNC(=N)N)[C@@H](C)OC(=O)[C@@H](C)NC(=O)[C@@H](CC(N)=O)NC(=O)[C@@H]([C@@H](C)O)NC1=O` gave an MIC of 8 µg/mL (Gram-positive bacteria).
`CC[C@H](C)[C@H](NC(=O)[C@H](CO)NC(=O)[C@H](CO)NC(=O)[C@H](Cc1ccccc1)NC(=O)CN)C(=O)N[C@@H](Cc1ccccc1)C(=O)N[C@@H](CCCNC(=N)N)C(=O)NCC(=O)N[C@H](C(=O)N[C@@H](C)C(=O)N[C@@H](CCCCN)C(N)=O)C(C)C` gave an MIC of > 128 µM (Escherichia coli; ATCC 8739; added: 2.5 mM CaCl2).
`C[C@@H](c1ccn(Cc2ccc(Cl)cc2Cl)n1)[C@](O)(Cn1cnnn1)c1ccc(F)cc1F` has an MIC of 64 µg/mL (Candidozyma auris; growth; 888 drug-resistant isolate; 24 h, 30 °C, ≥50% inhibition).
